Measured values from different studies.
Each line is one published result; not all experiments were run side by side. “And” joins repeats or separate records; there may be more than shown. Numbers after ± are the reported error.
Cell line: MDA-MB-231

With `CC[C@H](C)/C=C/C=C/C=C/C(O)=C/C(=O)C(F)(F)F` the cell migration was 80 ± 5% (wound healing; 1 µM, 24 h; relative to: DMSO).
`C[C@@H]1CC[C@@H]([C@@](O)(CNCc2cccc(F)c2)COCc2ccccc2)[C@H](OCc2ccccc2)C1` has an inhibition of 97.1% (cell growth or viability, MTT; 30 µM, 72 h).
`Cc1cnc(Nc2ccc3c(c2)CCN(C(=O)/C=C/C(=O)c2ccc(Cl)cc2)C3)nc1-c1cnn(C(C)C)c1` has an inhibition of roughly 96% (cell growth or viability, MTT; 1 µM, 48 h).
For `CC(=O)[O][Pd][c]1ccccc1-n1nc(C)cc1C.CC(=O)[O][Pd][c]1ccccc1-n1nc(C)cc1C`, “late apoptotic cells” read 25.9 ± 0.72% (annexin V/PI flow cytometry; 25 µM, 24 h).
`CCN(C(=O)c1cc(F)ccc1Oc1nncnc1N1CCC2(C1)CN([C@H](CCCN(C)CCOC)C(C)C)C2)C(C)C` gave a GI50 of greater than 10 µM (cell growth or viability; 72 h).
`COc1ccc(CNC[C@](O)(COCc2ccccc2)[C@@H]2CC[C@@H](C)C[C@H]2OCc2ccccc2)cc1` gave an inhibition of 97.9% (cell growth or viability, MTT; 10 µM, 72 h).
The growth percent of `CN(C)CCN1CCN(c2ccc3nc(-c4ccc5nc(-c6ccc(C(F)(F)F)cc6)[nH]c5c4)[nH]c3c2)CC1` is reported as 63.1% (SRB; 10 µM, 48 h).
`COc1ccccc1CNC[C@@](O)(COCc1ccccc1)[C@@H]1CC[C@@H](C)C[C@H]1OCc1ccccc1` gave an inhibition of 95% (cell growth or viability, MTT; 10 µM, 72 h).
For `CC(=O)[O][Pd][c]1cc(C)ccc1N1N=C(C)C(C)(C)C1=O.CC(=O)[O][Pd][c]1cc(C)ccc1N1N=C(C)C(C)(C)C1=O`, “cells with decreased ΔΨm” read 10.3 ± 1.03% (JC-1 flow cytometry; 25 µM, 24 h).
The colony survival of `COc1ccccc1-c1ccncc1C(=O)Nc1nnc(OCc2ccc(Cl)cc2)s1` is reported as 90.7% and 103% (0.1875 µM, single replicate; relative to: untreated).
`CCc1c(C)c2ccc(OC(C)C)c(C)c2oc1=O` gave a viability of 9.32% (cell growth or viability, MTT; 125 µg/mL).
`CC(=O)[O][Pd][c]1ccccc1N1N=C(C)C(C)(C)C1=O.CC(=O)[O][Pd][c]1ccccc1N1N=C(C)C(C)(C)C1=O`: “cells with decreased ΔΨm” 9.28 ± 1.21% (JC-1 flow cytometry; 25 µM, 24 h).
For `CCCNC(=O)[C@H]1O[C@@H]1C(=O)N[C@H](C(=O)N1CCC[C@H]1C(=O)OCC1=C2C(C)=CC(C)=[N+]2[B-](F)(F)n2c(C)cc(C)c21)[C@@H](C)CC`, the EC50 was greater than 50 µM (cell viability, MTT; concentration not given, 4 h, irradiated 15 min up to 470 nm).
`C[C@@H]1CC[C@@H]([C@@](O)(CNCc2ccc(F)cc2)COCc2ccc(F)cc2)[C@H](OCc2ccc(F)cc2)C1` has an inhibition of 94.7% (cell growth or viability, MTT; 10 µM, 72 h).
With `Cc1ccc(-n2cc(CSc3nc4ccccc4n3Cc3cn(-c4ccc(C)cc4)nn3)nn2)cc1` the viability was 60.1% (MTT; 3.91 ppm).
`C[C@@H]1CC[C@@H]([C@@](O)(CNCc2ccccc2F)COCc2ccccc2)[C@H](OCc2ccccc2)C1` gave an inhibition of 83.8% (cell growth or viability, MTT; 10 µM, 72 h).
The GI50 of `O=C(CCl)c1ccccc1Nc1cccc(C(F)(F)F)c1` is reported as 12.3 µM (cell growth or viability, SRB; 48 h).
With `CCCNC(=O)[C@H]1O[C@@H]1C(=O)N[C@H](C(=O)N1CCC[C@H]1C(=O)OCC1=C2C(C)=CC(C)=[N+]2[B-](C)(C)n2c(C)cc(C)c21)[C@@H](C)CC` the EC50 was 0.78 ± 0.14 µM (cell viability, MTT; concentration not given, 72 h, irradiated 15 min up to 470 nm).
Under “Hsp90α and Hsp90β levels”, `CCCc1cc2cc(-n3nc(C(F)(F)F)c4c3CC(C)(C)CC4=O)cc(N3CCC(O)CC3)c2c(=O)[nH]1` is recorded as “no effect” (Western blot; concentration not given, 24 h).
The inhibition of `COc1ccc(COC[C@](O)(CNCc2ccc(F)cc2)[C@@H]2CC[C@@H](C)C[C@H]2OCc2ccc(OC)cc2)cc1` is reported as 95.8% (cell growth or viability, MTT; 10 µM, 72 h).
The EC50 of `CCCNC(=O)[C@H]1O[C@@H]1C(=O)N[C@H](C(=O)N1CCC[C@H]1C(=O)OCC1=C2C(C)=CC(C)=[N+]2[B-](CC)(CC)n2c(C)cc(C)c21)[C@@H](C)CC` is reported as greater than 50 µM (cell viability, MTT; concentration not given, 4 h, irradiated 15 min up to 470 nm).
`COc1c(C)c(OS(=O)(=O)c2ccccc2)c(C)c(O)c1C(=O)/C=C/c1ccccc1` gave a selectivity index of 1.11 (relative to: CL over MDA-MB-231).
With `C[C@@H]1CC[C@@H]([C@@](O)(CNCc2ccc(F)cc2)COCc2ccccc2)[C@H](OCc2ccccc2)C1` the inhibition was 94.8% (cell growth or viability, MTT; 10 µM, 72 h).
With `Cc1nc2c(F)cc(-c3nc(Nc4ccc(C(=O)NCCCCCC(=O)NO)cc4)ncc3F)cc2n1C(C)C` the inhibition was 96% (cell growth or viability, CCK-8; 0.3 µM, 48 h).
The phototoxicity index of `Oc1ccnc(-c2cc(O)ccn2)c1.[Cl-].[Cl-].[Ru+2].c1ccc(-c2ccnc3c2ccc2c(-c4ccccc4)ccnc23)cc1.c1ccc(-c2ccnc3c2ccc2c(-c4ccccc4)ccnc23)cc1` is reported as 100 (cell viability; relative to: dark EC50 over light EC50).
`C[C@@H]1O[C@H]2O[C@@H]3C4(O)C(=O)c5cccc(O)c5C(=O)C4(O)O[C@]3(C)[C@]21O` (stereo partly drawn) has an EC50 of 64.5 µM (cell growth or viability, MTT; 48 h).
The inhibition of `C[C@@H]1CC[C@@H]([C@](O)(COCc2ccccc2)Cn2cnc3ccccc32)[C@H](OCc2ccccc2)C1` is reported as 95.9% (cell growth or viability, MTT; 30 µM, 72 h).
The EC50 of `CC(=O)OCC1=C2C(C)=CC(C)=[N+]2[B-](C)(C)n2c(C)cc(C)c21` is reported as greater than 50 µM (cell growth or viability, MTT; dark).
For `Cc1nc2c(F)cc(-c3nc(Nc4ccc(CNC(=O)CCCCCCC(=O)NO)cc4)ncc3F)cc2n1C(C)C`, the inhibition was 98.7% (cell growth or viability, CCK-8; 0.3 µM, 48 h).
For `CC(C)c1ccc(N(C)c2ccc3c(c2)OCC[C@H]3CNc2cnccc2C(=O)O)cc1`, the EC50 was 0.132 µM (apoptosis, refers to: caspase-3/7; 72 h; relative to: panobinostat).
The cytotoxicity of `CC(=O)OC[C@H]1O[C@@H](n2cc(CSc3nc4ccccc4n3Cc3cn([C@@H]4O[C@H](COC(C)=O)[C@@H](OC(C)=O)C(OC(C)=O)[C@H]4OC(C)=O)nn3)nn2)[C@H](OC(C)=O)C(OC(C)=O)[C@@H]1OC(C)=O` (stereo in doubt) is reported as 58.5% (MTT; 3.91 ppm).
`CCCc1cc2cc(-n3nc(CC)c4c3CC(C)(C)CC4=O)cc(N3CCC(O)CC3)c2c(=O)[nH]1`: c-Src level “no effect” (Western blot; concentration not given, 24 h).
For `C1=[N+]2CCCC[N+]3=Cc4ccc5[n]4[Au-]23[n]2c1ccc2-c1nc2ccccc2nc1-5.F[P-](F)(F)(F)(F)F`, the TGI was 4 -log M (NCI60 five-dose screen).

Some of these lines once more:
`COc1c(C)c(OS(=O)(=O)c2ccccc2)c(C)c(O)c1C(=O)/C=C/c1ccccc1` gave a selectivity index of 1.11 (relative to: CL over MDA-MB-231).
The growth percent of `CN(C)CCN1CCN(c2ccc3nc(-c4ccc5nc(-c6ccc(C(F)(F)F)cc6)[nH]c5c4)[nH]c3c2)CC1` is reported as 63.1% (SRB; 10 µM, 48 h).
The inhibition of `C[C@@H]1CC[C@@H]([C@](O)(COCc2ccccc2)Cn2cnc3ccccc32)[C@H](OCc2ccccc2)C1` is reported as 95.9% (cell growth or viability, MTT; 30 µM, 72 h).
The EC50 of `CC(=O)OCC1=C2C(C)=CC(C)=[N+]2[B-](C)(C)n2c(C)cc(C)c21` is reported as greater than 50 µM (cell growth or viability, MTT; dark).
`CC(=O)[O][Pd][c]1ccccc1N1N=C(C)C(C)(C)C1=O.CC(=O)[O][Pd][c]1ccccc1N1N=C(C)C(C)(C)C1=O`: “cells with decreased ΔΨm” 9.28 ± 1.21% (JC-1 flow cytometry; 25 µM, 24 h).
